Published values pooled from the literature.
A part holds a random share of what one study measured. Changes are numbered by the printed parent chain.

Block 1
Target: RNA binding protein fox-1 homolog 2, RRM domain, GST-SBP tag (RBFOX2, Homo sapiens, UniProt O43251-10, residues 100-194)
Technique: RNA Bind-n-Seq
Molecule type: RNA
Sample: in vitro
Tested at: 365 nM
Notes: natural RNA segment, single round, ends assumed
Relative to: no-protein control
Reading: higher = stronger binding
All sequences stand within: GGGAGUUCUACAGUCCGACGAUC … UGGAAUUCUCGGGUGCCAA
Residues (chain): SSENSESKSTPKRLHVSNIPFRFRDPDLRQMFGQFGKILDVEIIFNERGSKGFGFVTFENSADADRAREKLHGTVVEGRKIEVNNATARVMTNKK
| Sequence | RBNS enrichment (R) |
| --- | --- |
| UUAUAGAGACUCUAAGUCUAAAUUUUAAUUUCUUUGUAAAAACCUCAAAAGUGAGGAAAAUGGAUGUUUUAAAAUGGUAUUUUCAAUUUUUUAUAAGCAAAAUUUUGUAU | 1.2 |
| GGGACUUUUUCUAGACUUACAUUUAUUCAAAUGCAUAGGAAUAUGUCCUUGUGAUUAUCAGGAUCUCCUAAUAUUUAUCUCAAUUCUUUUGUAAGCUUGUGGAAAUUAUU | 0.702 |
| AUCCGUUCUCAAACUCCGGUGUGCCCACAUCUGCCUCCUCACCAGCCUGGUCUGUAUUUAAAGCUUUUGAGACCCAAUAAAAUAGUACCUGCUGUCUGCAGCCUUACUGU | 0.494 |
| UGGCAAGCUGGCCAGCCCUCUUCACUCCAGCGUUCUUCACUGCUCUAUGUCUGCUUACACAGCUUGGACAUGGCUGCUUUCCAUGAAGGAAAUAUAGGGGAGGUGGACUG | 0.265 |
| UGUAAUCUUUUAUUUAAGUAGUGGGCAUUUCAUAGCUUCACAAUGUUCCUUUUUUGUAUAUUACAACAUUUAUGUGAGGUAAUUAUUGCUCAACAGACAAUUAGAAAAAA | 0.455 |
| AAGGGCUCAGAAAACAAGCUGUGACAAGCAGAAACCAUGUCUAGGGGUGUGCAGCCCUUGACCCAAAGCUUAAGCCUUGUGCUCCCAGGGGAGCCAGGAAGUGACGUGUG | 0.332 |
| UUUUCUGGAGUAUAUUUGUACCAUAUUGUAACAAAAUGAUCCUGGCCACAAAAUAAAACACACACUGAUCAAAGCCGGCUAUACUGGCAUUGCAUAUCUUUGCUAUUCAA | 0.293 |
| CUGCCUUGUGGUAAACAGCAGGUGUUGGAUCAGAACCAUCGAUUUCCUGGCUGGCACCUGGUGUUGAUUCGCGGAGUUUGGGGACAGAUUCUAUUUCCCCACACCUGUUC | 0.257 |
| GUCUUUCCCAUGGGGAGGGAUUCUGGUUCCAGGGUCCCUCUGUGUAUUUGCUUUUUUGUUUUGGCUGAAAUUCUCCUGGAGGUCGGUAGGUUCAGCCAAGGUUUUAUAAG | 0.751 |
| ACCUGCAGGGCAUGAUGGAUCAGUGAUGAAAGAAUUGUAGCCUGUGGCACUUUGUUUUGACCUCUGGUAUAGAACUCUGACUUUUAUAGUUUUAAAAUGAUCAAUCUUUG | 20.7 |
| GGAAGAAAGCAGAAAGUUCAACUUCCAAAGGGUUAGGACUCUCCACUCAAUGUCUUAGGUCAGGAGUUGUGUCUAGGCUGGAAGAGCCAAAGAAUAUUCCAUUUUCCUUU | 0.27 |
| GGCUACCUGUUUGUGUGGCACAAGGACCCUCCUGCCAACCUGUUUGAAGACAUGGACCUCAACAAGGAUGGCGAGGUCCCUCCGGAGGAGGUCUCCACCUUCAUCAAGGC | 0.281 |

Block 2
Target: Interferon regulatory factor 5, full length, phosphomimetic (IRF5, Homo sapiens, UniProt Q13568-2, residues 1-514, S451D/S453D/S456D/S462D)
Technique: protein-binding microarray
Molecule type: double-stranded DNA, one strand shown
Sample: in vitro
Tested at: 940 nM top
Notes: 60-bp whole probe
Added: salmon DNA 0.4 mg/ml
Relative to: random background probes
Reading: higher = stronger binding
All sequences stand within: GCCTAGCAC … GTCTTGATTCGCTTGACGCTGCTG
| Sequence | fitted relative affinity [z-score] |
| --- | --- |
| GACGGTATCGACCTTCGGGACGTGCTA | 3.06 |
| GACGATCTCAGTTTAGAGACGTGCTAG | 0.196 |
| TTAGAACTGAGTTCCGATTAGTGCTAG | 0.329 |
| TTAGGTTTACTACTGCTTTAGTGCTAG | -0.138 |
| TTAGGATTCCTACTGCTTTAGTGCTAG | -0.298 |
| GACGGAGTGGACTATCGGGACGTGCTA | -0.0179 |
| TTAGGACTGGACACTGGGATAGTGCTA | -0.362 |
| GACGATATCGGGACTGGAGAGGTGCTA | 0.0609 |
| GACGGTATCGACTATCGGTACGTGCTA | 5.37 |
| TTAGATCTCCTACTGCTTTAGTGCTAG | 0.269 |
| TCAAATGATTGGTTGAAACTGTGCTAG | -0.166 |
| GACGGTTCCGGTTTCGGGTCGTGCTAG | 8.43 |
| TTAGGGCTGCTTTTCCTTTAGTGCTAG | -0.208 |
| GACGGTAACGGGTATCGGGACGTGCTA | 0.805 |
| GACGGTCTCGGTTTCGGGAGGTGCTAG | 6.03 |
| TCAACGAATTAGAAAGAGCAGTGCTAG | -0.377 |
| GACGATATAAGTATCGAGACGTGCTAG | 1.27 |
| TTAGGTATCGGTCCCGGTTAGTGCTAG | 9 |
| TAATGGATATATATCATTTAGTGCTAG | 0.0673 |
| AGCAGAAAGTGAAATACCCTCGTGCTA | -0.0613 |
| TTAGAACTGGGGTTGCGATTAGTGCTA | 0.63 |
| CACTCTCTACATGTGTTTAAGTGCTAG | 2.08 |

Block 3
Target: Ras GTPase-activating protein-binding protein 1, C-terminal RGG region (G3BP1, Homo sapiens, UniProt Q13283)
UniProt Q13283, sequence (whole entry, looked up): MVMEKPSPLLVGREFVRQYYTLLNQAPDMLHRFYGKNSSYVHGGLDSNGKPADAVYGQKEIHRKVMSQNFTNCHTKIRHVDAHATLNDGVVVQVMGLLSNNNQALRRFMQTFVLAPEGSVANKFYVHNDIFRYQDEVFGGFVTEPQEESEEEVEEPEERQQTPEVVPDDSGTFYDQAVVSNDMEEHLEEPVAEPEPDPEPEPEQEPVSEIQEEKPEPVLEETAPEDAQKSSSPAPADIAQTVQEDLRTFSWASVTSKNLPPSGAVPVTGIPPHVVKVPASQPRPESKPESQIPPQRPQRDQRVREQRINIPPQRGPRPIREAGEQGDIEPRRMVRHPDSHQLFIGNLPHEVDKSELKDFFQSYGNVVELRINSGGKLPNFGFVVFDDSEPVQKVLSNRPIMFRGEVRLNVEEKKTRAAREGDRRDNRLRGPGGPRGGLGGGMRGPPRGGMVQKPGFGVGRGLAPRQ
Technique: RNA Bind-n-Seq
Molecule type: RNA
Sample: in vitro
Tested at: 1 µM
Notes: whole 134-nt RNA, ends assumed
Added: 150 mM KCl
Relative to: input library
Reading: higher = stronger binding
All sequences stand within: GGGAGUUCUACAGUCCGACGAUC … UGGAAUUCUCGGGUGUCAAGG
| Sequence | log2 enrichment |
| --- | --- |
| UGCCUUGCAGAUACGUGGCUUUCCUGAAGCUGUUCCUGGAGACGGCGGAGAAGCACUUCAUGGUGGGCCACCGUGUCCACUACUAUGUCU | -0.99 |
| CCUGUGCUACACAUCGUAUGUACCGAAUCAAACCCCCCCAAAUUUUUAAAUUUUUUUAAAAAAGUAUUAUGUUACGCCGUUCGGAUCUGC | -1.07 |
| UCCUGUGCUACACAUCGUAUGUACCGAAUCGGGGUUUGGGGAAAAAAAGGGGAAAGGGGAAAGUAUUAUGUUACGCCGUUCGGAUCUGCA | 2.29 |
| ACCAUGCAGGUGGGCAUCUUUGGGAAGUGGGGCAAGGGGGGGAUAGGGAGGAGGGUAACACUUUGGGAACAGGUGGUCCCAGGUCGUUUC | 1.45 |
| UGGCCCUGGUGGCAUGCGGGGAGGAAGAGGUGGCCUCAUGGAUCGUGGUGGUCCCGGUGGAAUGUUCAGAUGUGGCCGUGGUGGAGACAG | 2.97 |
| GUCCUGUGCUACACAUCGUAUGUACCGAAUCGGGGUUUUUGGUUUUUGGGUUUUUGGGAAAGUAUUAUGUUACGCCGUUCGGAUCUGCAC | -1.11 |
| UCGGCUACACUGCCCGGAGAAUUCUCAAUGAGGAUGGCAGCCCUAACCUGGACUUCAAGCCUGAAGACCAGCCCCAUUUUGACAUCAAGG | -0.873 |
| UCCUGUGCUACACAUCGUAUGUACCGAAUCGGGCCCCCCGGCCCCCCGGGCCCCCCGGGGAAAGUAUUAUGUUACGCCGUUCGGAUCUGC | -0.754 |
| UGGGAGGUGGAUUUUGUUUAUUUUUUUAGCUCAUUUCCAGGGGUGGGAAUUUUUUUUUAAUAUGUGUCAUGAAUAAAGUUGUUUGUGAAA | 2.55 |
| GCAGGAAGUAAAAACAAAUGGAAAUGCUUCGGAUAGUGGCAGGGGUGGGGGUUGUUAAGGAAAGGGUGGGAUGGGAGUGGGUAAAGAGUU | 1.67 |
| UCAAGUCCUGUGCUACACAUCGUAUGUACCGAAUCGGGAAGGGAAGGGGAAGGGGAAAGUAUUAUGUUACGCCGUUCGGAUCUGCACUUC | 2.64 |
| CACAGACAACACGCACCCACACAGACACAGAGGGAAGGGGUUGGAAUGGGGACAGGGUGCACAGCAGGGCGGGGUAGGACCCCAGCCCCU | -0.719 |
| UCAAGUCCUGUGCUACACAUCGUAUGUACCGAAUCGGGGUUGGGGUUGGGUUGGGAAAGUAUUAUGUUACGCCGUUCGGAUCUGCACUUC | 1.93 |
| UCAUUAGAAGAUCUAAUUGAGAGAGAGGUAACUGGUAUCCUUUUCCUACCAUAAAAACUGAAAGCAGUAUUUAUUGUGAAAUUCUAAUAC | -1.23 |

Block 4
Target: CCNB2, cyclin fold, Cln2 fusion (human)
Technique: yeast growth competition, sequencing
Sample: yeast
Notes: weak parent motif
Relative to: not given
Reading: higher = stronger binding
Parent: PKN2 docking peptide (human); VSAVQKLDFSDTM; partner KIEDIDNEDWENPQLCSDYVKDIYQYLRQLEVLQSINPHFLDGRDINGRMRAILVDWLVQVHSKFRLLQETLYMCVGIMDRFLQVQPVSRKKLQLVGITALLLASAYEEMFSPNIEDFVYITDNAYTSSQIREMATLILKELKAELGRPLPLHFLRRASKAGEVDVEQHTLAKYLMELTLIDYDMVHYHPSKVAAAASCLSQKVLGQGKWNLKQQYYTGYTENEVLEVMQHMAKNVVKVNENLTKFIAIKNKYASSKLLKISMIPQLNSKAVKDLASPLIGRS
| Substitution | normalised enrichment score |
| --- | --- |
| VSAQQKLDFSDTM [V4Q] | -0.117 |
| VSYVQKLDFSDTM [A3Y] | 0.183 |
| VSAVQKLDCSDTM [F9C] | -0.374 |
| VSAVQKLWFSDTM [D8W] | 0.0837 |
| VSAVQKFDFSDTM [L7F] | -0.137 |
| VSEVQKLDFSDTM [A3E] | -0.354 |
| VYAVQKLDFSDTM [S2Y] | 0.0301 |
| VSAVQALDFSDTM [K6A] | -0.307 |
| VSAVQKMDFSDTM [L7M] | -0.231 |
| VSAFQKLDFSDTM [V4F] | -0.00518 |
| VSAVQKCDFSDTM [L7C] | -0.278 |
| VSAVRKLDFSDTM [Q5R] | 0.805 |
| VSAVQKLDFSDTP [M13P] | -0.164 |
| NSAVQKLDFSDTM [V1N] | 0.467 |
| VSIVQKLDFSDTM [A3I] | 1.59 |
| VVAVQKLDFSDTM [S2V] | 0.0778 |

Block 5
Target: Transcription factor SOX-2, HMG box (SOX2, Homo sapiens, UniProt P48431, residues 19-118)
UniProt P48431, sequence (19-118, looked up): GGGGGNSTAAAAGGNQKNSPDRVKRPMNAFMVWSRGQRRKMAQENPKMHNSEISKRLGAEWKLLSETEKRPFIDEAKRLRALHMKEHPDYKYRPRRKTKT
Technique: protein-binding microarray
Molecule type: double-stranded DNA, one strand shown
Sample: in vitro
Tested at: not given
Notes: k-mer, scored over probes, only values ≥0.25
Reading: higher = stronger binding
| Sequence | E-score |
| --- | --- |
| AATGGAT | 0.252 |
| CAATGGC | 0.341 |
| CTATTAA | 0.289 |
| ATTGTCG | 0.407 |
| AATGAAC | 0.254 |
| CATTATA | 0.356 |
| GATACAA | 0.275 |
| CCTATTC | 0.271 |
| ATTCACA | 0.395 |
| AATTGAT | 0.379 |
| CATTATC | 0.359 |
| ATTCACC | 0.377 |
| CATATAA | 0.348 |
| ATTGATG | 0.347 |

Block 6
Target: Sal-like protein 4, full length isoform A (SALL4, Homo sapiens, UniProt Q9UJQ4, residues 1-1053)
UniProt Q9UJQ4, sequence (whole entry, looked up): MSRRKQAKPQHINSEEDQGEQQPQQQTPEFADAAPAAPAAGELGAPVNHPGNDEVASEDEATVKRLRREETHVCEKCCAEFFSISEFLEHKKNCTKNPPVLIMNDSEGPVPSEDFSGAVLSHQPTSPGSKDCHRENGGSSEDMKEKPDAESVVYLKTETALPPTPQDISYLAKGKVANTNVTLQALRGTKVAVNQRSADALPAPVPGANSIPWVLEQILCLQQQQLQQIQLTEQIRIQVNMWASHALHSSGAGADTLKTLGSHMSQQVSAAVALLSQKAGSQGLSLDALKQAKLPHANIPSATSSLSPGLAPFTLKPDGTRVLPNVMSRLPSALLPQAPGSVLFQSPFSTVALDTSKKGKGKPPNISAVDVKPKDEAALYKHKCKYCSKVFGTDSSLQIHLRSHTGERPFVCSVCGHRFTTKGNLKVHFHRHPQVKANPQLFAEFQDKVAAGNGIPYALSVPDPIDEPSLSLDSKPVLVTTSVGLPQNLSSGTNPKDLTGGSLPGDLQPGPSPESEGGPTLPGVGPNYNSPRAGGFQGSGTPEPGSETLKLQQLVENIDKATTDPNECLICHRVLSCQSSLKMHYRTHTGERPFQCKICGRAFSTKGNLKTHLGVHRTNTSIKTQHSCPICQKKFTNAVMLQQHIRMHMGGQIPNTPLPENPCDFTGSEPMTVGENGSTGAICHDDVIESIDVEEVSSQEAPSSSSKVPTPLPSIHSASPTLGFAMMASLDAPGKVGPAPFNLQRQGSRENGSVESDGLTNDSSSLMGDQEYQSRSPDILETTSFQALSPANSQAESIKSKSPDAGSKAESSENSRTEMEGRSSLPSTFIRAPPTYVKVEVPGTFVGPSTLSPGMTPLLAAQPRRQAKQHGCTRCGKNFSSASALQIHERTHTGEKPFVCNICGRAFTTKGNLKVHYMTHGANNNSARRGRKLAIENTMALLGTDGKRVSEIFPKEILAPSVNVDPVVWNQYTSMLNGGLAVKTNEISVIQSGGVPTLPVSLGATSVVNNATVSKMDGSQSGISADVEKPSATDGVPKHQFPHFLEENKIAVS
Technique: universal PBM
Molecule type: double-stranded DNA, one strand shown
Sample: in vitro
Tested at: 600 nM
Notes: 8-mer, flanks averaged, mean of replicates
Reading: higher = stronger binding
| Sequence | E-score |
| --- | --- |
| ACGGTGCA | -0.0572 |
| ACCCGGAG | -0.263 |
| CGTGAACA | -0.0918 |
| ACGGCAGG | -0.413 |
| CGGAGACC | -0.243 |
| ATTCATGC | 0.0721 |
| ATTGCGAG | 0.131 |
| ACATAAGT | 0.275 |
| AGTTAGAT | 0.199 |
| ATTACTAC | 0.248 |
| ACCGGTAC | -0.132 |
| TACAACAA | 0.209 |
| ACACCAAG | 0.0084 |
| CTGGTTCA | -0.0598 |
| CCTTACAC | -0.0781 |
| CCCGAGAG | -0.16 |
| CTGTAGTA | 0.254 |
| CTTTAAGA | 0.104 |
